Measured values from different studies.
Parts stem from different laboratories: compare values within a part only. Changes are numbered by the printed parent chain.

Series 1 — method: protein-binding microarray; molecule type: hairpin DNA; matrix: in vitro; concentration: not given; reference: not given; direction: higher = stronger binding
Target: Homeobox protein Hox-C11, full length (HOXC11, Homo sapiens, UniProt O43248, residues 1-304)
UniProt O43248, sequence (whole entry, looked up): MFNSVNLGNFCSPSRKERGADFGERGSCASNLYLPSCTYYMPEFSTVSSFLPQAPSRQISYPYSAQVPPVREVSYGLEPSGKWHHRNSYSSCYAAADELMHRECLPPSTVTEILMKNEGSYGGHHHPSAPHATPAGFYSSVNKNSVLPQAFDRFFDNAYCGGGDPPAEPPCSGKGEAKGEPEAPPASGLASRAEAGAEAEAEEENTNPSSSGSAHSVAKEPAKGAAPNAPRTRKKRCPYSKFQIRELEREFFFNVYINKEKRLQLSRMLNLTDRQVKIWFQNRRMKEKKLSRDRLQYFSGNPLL
Notes: whole hairpin DNA, median over replicate spots
Sequence | median fluorescence
GAGGCCAGGTCGTAAAGGCCTCCTGGCCTTTACGACCTGGCCTCACACTC (5mC at 28) | 10600 a.u.
GAGGCCAGGTGGTAAAAGCCTCCTGGCTTTTACCACCTGGCCTCACACTC (5mC at 34) | 9390 a.u.
GAGGCCCGGTCGTAAAAGCCTCCTGGCTTTTACGACCGGGCCTCACACTC (5mC at 37) | 10600 a.u.
GAGGCCAGGTCGTAAACGCCTCCTGGCGTTTACGACCTGGCCTCACACTC | 11400 a.u.
GAGGCCACGTCGTTAAAGCCTCCTGGCTTTAACGACGTGGCCTCACACTC | 9180 a.u.
GAGGCCAGGTCGTAAGAGCCTCCTGGCTCTTACGACCTGGCCTCACACTC (5mC at 29) | 10600 a.u.
GAGGCCAGGTCGTCGAAGCCTCCTGGCTTCGACGACCTGGCCTCACACTC (5mC at 14) | 10200 a.u.
GAGGCCCGGTCGTTAAAGCCTCCTGGCTTTAACGACCGGGCCTCACACTC (5mC at 7) | 10100 a.u.
GAGGCCAGGTCGTAAAAGCCTCCTGGCTTTTACGACCTGGCCTCACACTC (5mC at 37) | 10600 a.u.
GAGGCCAGGTCCGTAAAGCCTCCTGGCTTTACGGACCTGGCCTCACACTC (5mC at 32) | 9880 a.u.
GAGGCCAGGTCGTTCGAGCCTCCTGGCTCGAACGACCTGGCCTCACACTC | 10700 a.u.
GAGGCCAGGGCGTTAAAGCCTCCTGGCTTTAACGCCCTGGCCTCACACTC | 10100 a.u.
GAGGCCAGGTCGTTCGAGCCTCCTGGCTCGAACGACCTGGCCTCACACTC (5mC at 15) | 10600 a.u.
GAGGCCAGGTCGTCGAAGCCTCCTGGCTTCGACGACCTGGCCTCACACTC (5mC at 14 30) | 10700 a.u.
GAGGCCAGGTAGTAAAAGCCTCCTGGCTTTTACTACCTGGCCTCACACTC | 9370 a.u.
GAGGCCAGCGCGTAAAAGCCTCCTGGCTTTTACGCGCTGGCCTCACACTC (5mC at 35) | 10600 a.u.
GAGGCCAGGTCGCAAAAGCCTCCTGGCTTTTGCGACCTGGCCTCACACTC (5mC at 13) | 10500 a.u.
GAGGCCAGGTCGTTAGAGCCTCCTGGCTCTAACGACCTGGCCTCACACTC | 10300 a.u.

Series 2 — method: competition protein-binding microarray; molecule type: double-stranded DNA, one strand shown; matrix: in vitro; concentration: 2 µM; added: Pho4 competitor, 0.05 µM; direction: higher = stronger binding; shared flanks, not repeated: … GTCTTGATTCGCTTGACGCTGCTG
Target: Centromere-binding protein 1, full length, His-tagged (CBF1, Saccharomyces cerevisiae, UniProt P17106, residues 1-351)
UniProt P17106, sequence (whole entry, looked up): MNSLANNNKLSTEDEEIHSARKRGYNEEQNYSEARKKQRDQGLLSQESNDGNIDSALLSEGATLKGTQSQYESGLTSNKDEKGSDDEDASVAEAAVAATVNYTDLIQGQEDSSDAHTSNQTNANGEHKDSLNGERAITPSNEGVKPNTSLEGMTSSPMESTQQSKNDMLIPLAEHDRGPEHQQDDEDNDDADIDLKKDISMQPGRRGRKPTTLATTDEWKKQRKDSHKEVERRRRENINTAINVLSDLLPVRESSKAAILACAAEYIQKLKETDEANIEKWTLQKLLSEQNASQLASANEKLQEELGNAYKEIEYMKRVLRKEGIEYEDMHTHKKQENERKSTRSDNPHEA
Notes: whole 60-bp probe, lowest competitor level
Sequence | fluorescence intensity [a.u.]
CTTCTGTAAATTTGCGCCGTGGGTGGACGCGCCCCG | 80.7
CCTTTGAAGTATTTTCTCGTGGAAGCAGCCTCGTAA | 80.7
CTACGGAATAGCGGCCACGTTTCCGTAGGTTACTAT | 127
GTCTTGTCTCATTGAGGAGTGGGTGTCCCCACTTCA | 69.2
CGTCCTAGTGATTGGCTAGTGGGTGCCATGAGGAAG | 74.2
TTGAGTAACTTTGGGCAGGTGACAGGTAAACCCCTT | 339
TAGAGGCCCAACCGTCACGGCGTCTGGCTACGAACC | 56.4
GTCCCCCCGCCACACATCGTGGAATAATCGCTATCG | 128
GAGATGATATGTTTGCTGGTGTCGCACTGCCTTTCA | 61.4
TTACAACAGGAATACCTTGTGACAGGCAACCAAGAA | 84.8
GTCCTGGCACCATCAATCGTGCTTTGACCAGTATGT | 75.7
CTAACGAAGGTTTGCCTCGTGGGTGACAAGCCAAGT | 88.6
CTTCTGTAAATTTTTCACGTGCCTTGACGCGCCCCG | 953
TACATTCCATTTTTGCACGTGTTGGGGTACAGAATC | 2180
CGGATCAGTTTACATCATGTGTGCCCCCACCATGAT | 219
CATTGGGTATACCATCACGTGTACTATCAAATAAAG | 4500
AACCGTACTTGATTTCACCTGCGGGCTTCAAGTCGG | 67.7
AAAGTTATCAAGACCGACGTGTCCTCCTCGTCGTTC | 58.8
AGTTGATTTTTTTTTCTCGTGGTGAGAGATAAATAA | 99.8

Series 3 — target: CCND1, cyclin fold, Cln2 fusion (human); method: yeast growth competition, sequencing; matrix: yeast; notes: strong parent motif; reference: not given; direction: higher = stronger binding
Starting sequence: PKN2 docking peptide (human); VSAVQKLDFSDTM
Change | normalised enrichment score
T12I | 2.29
M13H | 1.96
F9T | 0.141
F9D | 0.0899
D8G | 0.331
D11L | 2.07
L7H | 0.409
M13C | 1.83
D8F | 0.334
S10T | 1.65
V1H | 2.43
D8E | 1.03
V1A | 1.64
V4A | 1.05
M13L | 2.32
A3K | 0.548
S2M | 1.44
D11G | 2.41
T12F | 2.32
L7E | 0.348
A3M | 0.262
M13P | 2
M13E | 2.44
V4F | 1.44
V4Q | 0.891

Series 4 — method: RNA Bind-n-Seq; molecule type: RNA; matrix: in vitro; concentration: not given; reference: input RNA pool; direction: higher = stronger binding
Target: RING finger protein unkempt homolog, zinc fingers 1-6, GST-SBP tag (UNK, Homo sapiens, UniProt Q9C0B0, residues 30-357)
Notes: RNA with constant flanks, human and mouse sites, ends assumed
Shared flanks, not repeated: GGGAGUUCUACAGUCCGACGAUC … CAACAGAGGAUUGAGCAUCA
Residues (chain): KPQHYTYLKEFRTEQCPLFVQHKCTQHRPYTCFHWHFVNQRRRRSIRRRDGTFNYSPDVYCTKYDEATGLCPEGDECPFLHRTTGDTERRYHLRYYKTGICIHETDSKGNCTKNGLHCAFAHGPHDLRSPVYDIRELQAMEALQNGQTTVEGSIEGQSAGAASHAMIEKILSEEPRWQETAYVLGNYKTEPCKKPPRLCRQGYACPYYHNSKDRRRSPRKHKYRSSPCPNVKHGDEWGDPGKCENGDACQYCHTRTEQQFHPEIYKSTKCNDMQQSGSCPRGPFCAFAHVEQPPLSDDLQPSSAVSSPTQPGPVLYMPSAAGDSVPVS
Sequence | bound/input enrichment
GUACAGAGUGUCAUUGACAGCCAAGGCAAAAACUGUGCCUCACUUCUGAGGGUCGAACCCUUUGUAUGUGCCCAGUGCCGCACAGAUUUCACCCCUCACUGGAAGCAAGAAAAGAAUGGU | 0.194 ratio
GCCUGGUCCAGCAUCGUCUACCAGCUGAUUCCCAACGUUCAGCAGCUGGAGAUGAACCUCAGGAAUUUUGCCCAAAUCAUUGAGGCCGAUGAAGUUCUGCUGUUCGAAAGAGCUACAUUC | 0.0843 ratio
GUUAUUGAAAAACUCUUGACCUCUUACGGAUUCAUUCAGUGUUCAGAACGGCAAGCUAGACUUUUCUUCCACUGUUCACAAUAUAAUGGCAACCUCCAAGACUUAAAAGUAGGAGAUGAU | 0.271 ratio
GGCACUGGCUUCGUGUUCAGCUGCCUCAGCGGCCAGGGCCGUACCACAACUGCGAUGGUGGUGGCUGUCCUGGCCUUCUGGCACAUCCAAGGCUUCCCCGAGGUGGGUGAGGAGGAGCUC | 0.0804 ratio
GAAGACUUUGGUCCAGAAAAGAAAACCAGUGAUGUUGAAACCAUGAGUUCUCAAUCAGCUCUAGCUUUGGAUGAAAGGAAAUUGGGAGGAGAUGUAUCUCCAACACAAAUAGACGUCAGU | 0.167 ratio
UGGCUUUCUCCCAAGAGUCUCACCCGCUCCCAUCUGGCUGUCAUUGGACUGGACGCAUACCUGUGGUCUCACCAGCUCAGUUCUCAGAAGACAUGGCAACUAAAGAAGUCAAAGGAAGCC | 0.731 ratio
UAUCCUAUUGCGGUGCUCAUAGAUGAACUCCGCAAUGAGGACGUUCAGCUUCGUCUCAAUAGUAUCAAGAAGCUCUCCACAAUUGCCUUGGCCCUUGGGGUUGAACGGACCAGAAGUGAG | 1.35 ratio
GAUGACAUCAUUCGGCAUGACUUCUUCCUGCAGGGUUUCACUCCGGACAGACUCUCUUCCAGCUGUUGCCACACAGUUCCAGAUUUCCACUUGUCAAGCCCAGCCAAGAAUUUCUUUAAG | 0.215 ratio
AUCUACGAAGAACUUGGCUAUGGCUGAUCUUUUUUAAAUUUAACUUUCUGAUGGACCCUGUAGUUUCCAGUUAAGUGCAGAUUCCUUACAGACAUAUAGAACAGCGCAUUCUUCUGUAGA | 0.999 ratio
CUGCUGAGGCUGUGUCACCGGGGUCAGACCCUGUUAGUUGUGUCUGCGUGCCCAUUCUUUUUUGGUUUGUUCAUUUAUUGUUUGUUGUUGUUGUUGUUGUUGUUGUUAGUUUUUCCAGGU | 12.4 ratio
UACAUGAUGAAAGCGUUCGACCUCAUCGUGGACCGACCCGUGACCCUCGUGAGAGAAUUUAUAGAGCGGCAGCACGCAAAGAACAGGUAUUACUACUACCACCGGCAGUACCGCCGCGUG | 0.129 ratio

Some of these lines once more (series 3):
Change | normalised enrichment score
L7E | 0.348
D8F | 0.334
F9T | 0.141
V4Q | 0.891
A3K | 0.548
A3M | 0.262
T12I | 2.29
S10T | 1.65
M13L | 2.32
V1H | 2.43
